Assay results pooled from the literature.
“And” joins repeats or separate records; there may be more than shown. ± gives the spread as reported.
FFAR2: Free fatty acid receptor 2 (FFAR2, Homo sapiens, UniProt O15552)
Sequence of UniProt O15552 (whole entry, looked up): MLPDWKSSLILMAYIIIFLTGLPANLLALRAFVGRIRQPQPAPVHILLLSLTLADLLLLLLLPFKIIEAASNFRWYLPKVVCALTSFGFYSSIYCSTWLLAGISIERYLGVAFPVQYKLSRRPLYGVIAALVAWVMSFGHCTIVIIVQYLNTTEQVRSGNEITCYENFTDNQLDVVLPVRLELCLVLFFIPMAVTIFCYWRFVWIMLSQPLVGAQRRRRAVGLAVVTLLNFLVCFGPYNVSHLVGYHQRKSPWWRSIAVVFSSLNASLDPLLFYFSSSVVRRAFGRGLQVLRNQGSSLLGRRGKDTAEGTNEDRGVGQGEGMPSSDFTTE
Sctr: Sctr (Rattus norvegicus, UniProt P23811)
Sequence of UniProt P23811 (whole entry, looked up): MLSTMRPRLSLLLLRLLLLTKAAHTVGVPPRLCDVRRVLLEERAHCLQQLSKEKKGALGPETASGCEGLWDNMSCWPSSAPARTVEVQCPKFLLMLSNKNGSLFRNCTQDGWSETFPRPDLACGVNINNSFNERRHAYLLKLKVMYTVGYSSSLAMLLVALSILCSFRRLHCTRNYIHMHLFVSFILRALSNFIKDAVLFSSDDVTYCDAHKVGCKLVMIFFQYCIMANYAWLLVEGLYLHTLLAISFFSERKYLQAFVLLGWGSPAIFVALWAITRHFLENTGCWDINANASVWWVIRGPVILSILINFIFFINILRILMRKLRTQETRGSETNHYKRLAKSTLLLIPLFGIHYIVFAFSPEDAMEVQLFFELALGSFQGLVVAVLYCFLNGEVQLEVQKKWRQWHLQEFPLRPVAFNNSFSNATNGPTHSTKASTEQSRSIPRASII
GRPR: Gastrin-releasing peptide receptor (GRPR, Homo sapiens, UniProt P30550)
Sequence of UniProt P30550 (whole entry, looked up): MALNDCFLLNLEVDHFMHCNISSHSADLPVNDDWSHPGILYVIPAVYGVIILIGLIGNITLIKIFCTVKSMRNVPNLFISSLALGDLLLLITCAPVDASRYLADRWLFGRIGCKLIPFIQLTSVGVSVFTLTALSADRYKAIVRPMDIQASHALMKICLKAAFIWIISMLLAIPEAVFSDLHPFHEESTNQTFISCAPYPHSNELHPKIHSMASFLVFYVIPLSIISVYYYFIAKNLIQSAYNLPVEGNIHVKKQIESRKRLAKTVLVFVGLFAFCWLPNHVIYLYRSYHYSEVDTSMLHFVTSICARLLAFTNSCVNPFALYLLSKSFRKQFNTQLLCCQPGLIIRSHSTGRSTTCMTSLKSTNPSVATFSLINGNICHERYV
Sequence of UniProt A7T1N0 (whole entry, looked up): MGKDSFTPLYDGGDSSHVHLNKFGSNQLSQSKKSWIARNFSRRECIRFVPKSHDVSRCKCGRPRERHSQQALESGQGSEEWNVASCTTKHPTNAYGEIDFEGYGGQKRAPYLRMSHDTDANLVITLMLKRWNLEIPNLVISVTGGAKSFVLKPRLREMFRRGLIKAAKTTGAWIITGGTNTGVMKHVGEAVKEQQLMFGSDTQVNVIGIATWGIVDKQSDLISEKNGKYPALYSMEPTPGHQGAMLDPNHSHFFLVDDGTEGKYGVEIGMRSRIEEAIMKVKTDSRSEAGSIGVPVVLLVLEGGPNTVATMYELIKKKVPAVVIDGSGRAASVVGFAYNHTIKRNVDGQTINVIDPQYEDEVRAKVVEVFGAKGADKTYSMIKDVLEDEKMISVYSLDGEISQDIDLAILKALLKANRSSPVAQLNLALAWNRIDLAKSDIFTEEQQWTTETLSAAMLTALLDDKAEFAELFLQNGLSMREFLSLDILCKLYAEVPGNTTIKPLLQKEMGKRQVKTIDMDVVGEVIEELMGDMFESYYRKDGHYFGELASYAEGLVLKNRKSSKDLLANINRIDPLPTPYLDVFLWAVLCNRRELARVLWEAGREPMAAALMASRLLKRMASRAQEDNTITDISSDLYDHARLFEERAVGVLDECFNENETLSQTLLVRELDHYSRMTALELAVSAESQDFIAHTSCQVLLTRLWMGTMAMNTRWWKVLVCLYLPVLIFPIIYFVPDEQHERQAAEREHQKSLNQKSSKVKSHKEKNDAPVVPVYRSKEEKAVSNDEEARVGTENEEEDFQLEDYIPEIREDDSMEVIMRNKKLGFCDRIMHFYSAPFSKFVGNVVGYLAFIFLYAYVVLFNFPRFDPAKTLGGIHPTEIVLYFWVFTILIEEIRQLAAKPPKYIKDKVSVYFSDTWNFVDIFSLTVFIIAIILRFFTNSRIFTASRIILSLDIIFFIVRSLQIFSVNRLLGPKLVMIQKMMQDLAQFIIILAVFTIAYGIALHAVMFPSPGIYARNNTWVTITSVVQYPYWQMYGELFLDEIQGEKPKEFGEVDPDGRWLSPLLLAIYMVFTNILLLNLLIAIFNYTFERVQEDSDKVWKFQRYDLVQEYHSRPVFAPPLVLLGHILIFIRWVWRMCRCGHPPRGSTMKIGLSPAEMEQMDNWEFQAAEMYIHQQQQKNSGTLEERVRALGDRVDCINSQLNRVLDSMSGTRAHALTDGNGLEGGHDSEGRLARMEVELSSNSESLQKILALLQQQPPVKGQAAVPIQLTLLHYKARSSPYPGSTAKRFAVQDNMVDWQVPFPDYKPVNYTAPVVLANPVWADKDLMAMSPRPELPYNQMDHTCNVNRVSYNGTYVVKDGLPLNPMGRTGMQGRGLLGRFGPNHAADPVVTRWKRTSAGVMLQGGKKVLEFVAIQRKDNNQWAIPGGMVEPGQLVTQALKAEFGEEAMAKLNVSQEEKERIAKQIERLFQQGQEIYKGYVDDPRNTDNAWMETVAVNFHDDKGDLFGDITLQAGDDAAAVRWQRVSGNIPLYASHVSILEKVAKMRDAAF
Sequence of UniProt Q9WUP0 (whole entry, unmodified, looked up): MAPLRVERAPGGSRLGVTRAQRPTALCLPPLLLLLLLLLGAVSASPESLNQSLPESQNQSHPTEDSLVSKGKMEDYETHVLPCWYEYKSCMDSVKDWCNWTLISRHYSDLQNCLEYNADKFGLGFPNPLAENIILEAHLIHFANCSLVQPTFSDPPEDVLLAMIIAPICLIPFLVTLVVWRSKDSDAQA
Sequence of UniProt P43116 (whole entry, looked up): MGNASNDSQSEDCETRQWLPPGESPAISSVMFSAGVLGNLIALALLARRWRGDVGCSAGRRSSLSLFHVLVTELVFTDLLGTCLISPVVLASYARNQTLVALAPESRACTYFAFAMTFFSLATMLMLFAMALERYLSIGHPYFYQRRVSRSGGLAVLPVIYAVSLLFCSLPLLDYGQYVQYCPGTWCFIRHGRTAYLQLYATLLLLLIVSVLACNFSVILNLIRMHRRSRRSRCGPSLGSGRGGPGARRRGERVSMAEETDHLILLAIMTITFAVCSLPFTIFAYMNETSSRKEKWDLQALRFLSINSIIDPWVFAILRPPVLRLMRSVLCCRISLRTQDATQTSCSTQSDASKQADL
Sequence of UniProt Q60755 (whole entry, unmodified, looked up): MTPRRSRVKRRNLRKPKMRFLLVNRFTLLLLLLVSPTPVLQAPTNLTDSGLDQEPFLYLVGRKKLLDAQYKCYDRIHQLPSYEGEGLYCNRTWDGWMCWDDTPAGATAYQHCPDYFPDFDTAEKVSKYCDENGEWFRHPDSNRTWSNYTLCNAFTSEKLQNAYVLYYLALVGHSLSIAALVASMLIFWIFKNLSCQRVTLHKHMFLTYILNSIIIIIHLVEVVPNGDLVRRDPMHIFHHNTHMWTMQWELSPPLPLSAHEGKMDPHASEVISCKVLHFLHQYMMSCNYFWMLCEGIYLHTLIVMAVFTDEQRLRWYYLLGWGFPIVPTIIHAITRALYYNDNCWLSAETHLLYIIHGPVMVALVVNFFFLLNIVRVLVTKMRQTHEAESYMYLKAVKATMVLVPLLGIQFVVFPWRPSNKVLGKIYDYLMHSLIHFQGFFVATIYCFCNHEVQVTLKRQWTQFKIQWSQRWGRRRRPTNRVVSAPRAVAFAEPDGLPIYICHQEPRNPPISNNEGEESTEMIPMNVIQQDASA
Sequence of UniProt P41145 (whole entry, looked up): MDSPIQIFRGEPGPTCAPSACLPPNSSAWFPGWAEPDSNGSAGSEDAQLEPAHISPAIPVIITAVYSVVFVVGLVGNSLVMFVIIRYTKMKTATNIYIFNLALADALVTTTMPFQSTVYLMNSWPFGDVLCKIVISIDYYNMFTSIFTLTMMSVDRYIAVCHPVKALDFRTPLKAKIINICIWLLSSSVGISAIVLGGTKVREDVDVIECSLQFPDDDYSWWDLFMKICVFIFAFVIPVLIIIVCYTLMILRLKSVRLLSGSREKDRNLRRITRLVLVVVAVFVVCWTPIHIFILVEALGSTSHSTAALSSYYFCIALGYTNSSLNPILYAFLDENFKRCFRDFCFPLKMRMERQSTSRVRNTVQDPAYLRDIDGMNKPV
Sequence of UniProt Q8NER1 (whole entry, looked up): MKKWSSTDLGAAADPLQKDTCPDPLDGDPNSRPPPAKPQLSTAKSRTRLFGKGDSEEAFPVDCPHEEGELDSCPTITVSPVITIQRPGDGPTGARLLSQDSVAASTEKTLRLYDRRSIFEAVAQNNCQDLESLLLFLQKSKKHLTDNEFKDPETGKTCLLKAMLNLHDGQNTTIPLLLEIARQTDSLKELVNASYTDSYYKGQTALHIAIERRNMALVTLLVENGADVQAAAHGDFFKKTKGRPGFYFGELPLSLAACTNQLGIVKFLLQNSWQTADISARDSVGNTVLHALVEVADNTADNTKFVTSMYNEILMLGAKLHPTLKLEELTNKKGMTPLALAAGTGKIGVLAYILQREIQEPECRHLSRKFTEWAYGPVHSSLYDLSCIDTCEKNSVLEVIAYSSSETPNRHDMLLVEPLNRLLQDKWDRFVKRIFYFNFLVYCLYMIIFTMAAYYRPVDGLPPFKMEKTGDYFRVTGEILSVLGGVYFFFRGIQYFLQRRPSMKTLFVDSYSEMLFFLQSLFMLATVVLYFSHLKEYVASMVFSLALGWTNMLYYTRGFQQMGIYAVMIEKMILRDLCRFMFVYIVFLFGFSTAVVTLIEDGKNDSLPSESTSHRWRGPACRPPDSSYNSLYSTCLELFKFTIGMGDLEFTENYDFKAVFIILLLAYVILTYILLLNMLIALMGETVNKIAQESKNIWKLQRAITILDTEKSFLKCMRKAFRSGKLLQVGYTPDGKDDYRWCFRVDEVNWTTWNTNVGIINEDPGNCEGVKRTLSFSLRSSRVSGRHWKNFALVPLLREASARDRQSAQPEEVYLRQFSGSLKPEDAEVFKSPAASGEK

SMILES | target | test | system | setting | scale | EC50
C/C=C/C(=O)O | FFAR2 | agonist |  |  |  | 170000 nM
CC1=C(/C=C/C(C)=C\C=C\C(C)=C\C=O)C(C)(C)CCC1 | Rhodopsin (RHO, Bos taurus, UniProt P02699) | binding, fluorescence |  | cell membranes |  | 124 nM
Nc1ncnc2c1ncn2C1OC(COP(=O)(O)OP(=O)(O)OCC2OC(O)C(O)C2O)C(O)C1O (stereo not shown) | TRPM2 (Nematostella vectensis, UniProt A7T1N0) | channel activation, agonist, inside-out patch clamp | Xenopus oocytes | -20 mV, with: 125 µM Ca2+ |  | ~2300 nM and 2300 nM
O=C(O)/C=C/c1cccc(NC(=O)c2cc(-c3ccc(F)cc3)ccc2F)c1 | PTGER2 (Homo sapiens, UniProt P43116) | calcium signal, agonist, fluorescence |  |  |  | 50.1 nM
CC(C)C[C@H](NC(=O)CNC(=O)[C@H](CCC(N)=O)NC(=O)[C@H](CC(C)C)NC(=O)[C@H](CC(C)C)NC(=O)[C@H](CCCNC(=N)N)NC(=O)[C@H](CCC(N)=O)NC(=O)[C@H](CC(C)C)NC(=O)[C@H](CCCNC(=N)N)NC(=O)[C@H](C)NC(=O)[C@H](CO)NC(=O)[C@H](CC(=O)O)NC(=O)[C@H](CCC(N)=O)NC(=O)[C@H](CC(C)C)NC(=O)[C@H](CCCNC(=N)N)NC(=O)[C@H](CO)NC(=O)[C@H](CC(C)C)NC(=O)[C@H](CCC(=O)O)NC(=O)[C@H](CO)NC(=O)[C@@H](NC(=O)[C@H](Cc1ccccc1)NC(=O)[C@@H](NC(=O)CNC(=O)[C@H](CC(=O)O)NC(=O)[C@H](CO)NC(=O)[C@H](C)N)[C@@H](C)O)[C@@H](C)O)C(=O)N[C@H](C(N)=O)C(C)C | Sctr | cAMP production, agonist | CHO-SecR | 30 min, 37 °C, with: 1 mM IBMX |  | 55.2 ± 8.7 nM
COc1cc(CC2=NCC(c3ccccc3)O2)ccc1O (stereo not shown) | TRPV1 (Homo sapiens, UniProt Q8NER1) | calcium signal, agonist |  |  |  | > 10000 nM
CC(C)C[C@H](NC(=O)CNC(=O)[C@H](CCC(N)=O)NC(=O)[C@H](CC(C)C)NC(=O)[C@H](CC(C)C)NC(=O)[C@H](CCCNC(=N)N)NC(=O)[C@H](CCC(N)=O)NC(=O)[C@H](CC(C)C)NC(=O)[C@H](CCCNC(=N)N)NC(=O)[C@H](C)NC(=O)[C@H](CO)NC(=O)[C@H](CC(=O)O)NC(=O)[C@H](CCC(N)=O)NC(=O)[C@H](CC(C)C)NC(=O)[C@H](CCCNC(=N)N)NC(=O)[C@H](CO)NC(=O)[C@H](CC(C)C)NC(=O)[C@H](CCC(=O)O)NC(=O)[C@H](CO)NC(=O)[C@@H](NC(=O)[C@H](C)NC(=O)[C@@H](NC(=O)CNC(=O)[C@H](CC(=O)O)NC(=O)[C@H](CO)NC(=O)[C@@H](N)Cc1c[nH]cn1)[C@@H](C)O)[C@@H](C)O)C(=O)N[C@H](C(N)=O)C(C)C | Sctr | cAMP production, agonist | CHO-SecR | 30 min, 37 °C, with: 1 mM IBMX |  | 4.6 ± 0.5 nM
CCCC[C@H](NC(=O)[C@H](Cc1ccccc1)NC(=O)[C@H](Cc1c[nH]cn1)NC(=O)CCNC(=O)[C@@H](NC(=O)[C@H](C)NC(=O)[C@H](Cc1c[nH]c2ccccc12)NC(=O)[C@H](CC(N)=O)NC(=O)[C@H](N)Cc1ccc(O)cc1)C(C)C)C(N)=O | GRPR | inositol phosphate generation, agonist | BALB/3T3 transfected with human GRPR | 45 min, 37 °C | baseline: 1 µM GRP | 0.85 ± 0.02 nM
CC[C@H](C)[C@H](NC(=O)[C@@H]1CCCN1C(=O)CNC(=O)[C@H](Cc1ccccc1)NC(=O)[C@H](CC(N)=O)NC(=O)[C@H](CC(N)=O)NC(=O)[C@H](CO)NC(=O)[C@H](CO)NC(=O)[C@H](Cc1c[nH]cn1)NC(=O)[C@@H](NC(=O)[C@H](CC(C)C)NC(=O)[C@H](Cc1ccccc1)NC(=O)[C@H](CC(N)=O)NC(=O)[C@H](C)NC(=O)[C@H](CC(C)C)NC(=O)[C@H](CCCNC(=N)N)NC(=O)[C@H](CCC(N)=O)NC(=O)[C@@H](NC(=O)[C@H](C)NC(=O)[C@@H]1CSSC[C@H](NC(=O)[C@@H](N)CCCCN)C(=O)N[C@@H](CC(N)=O)C(=O)N[C@@H]([C@@H](C)O)C(=O)N[C@@H](C)C(=O)N[C@@H]([C@@H](C)O)C(=O)N1)[C@@H](C)O)C(C)C)C(=O)N[C@@H](CC(C)C)C(=O)N1CCC[C@H]1C(=O)N1CCC[C@H]1C(=O)N[C@H](C(=O)N[C@@H](CC(N)=O)C(=O)N[C@H](C(=O)NCC(=O)N[C@@H](CO)C(=O)N[C@@H](CC(N)=O)C(=O)N[C@H](C(=O)N[C@@H](Cc1ccc(O)cc1)C(N)=O)[C@@H](C)O)C(C)C)[C@@H](C)O | Calcr/Ramp2 (Mus musculus, UniProt Q60755+Q9WUP0, P10T) | cAMP production, agonist | COS-7, transfected | 15 min, 37 °C, with: IBMX 1 mM |  | 7.76 nM
O=C(O)C1CCC1 | FFAR2 | agonist |  |  |  | 468000 nM
CC(C)C[C@H](NC(=O)CNC(=O)[C@H](CCC(N)=O)NC(=O)[C@H](CC(C)C)NC(=O)[C@H](CC(C)C)NC(=O)[C@H](CCCNC(=N)N)NC(=O)[C@H](CCC(N)=O)NC(=O)[C@H](CC(C)C)NC(=O)[C@H](CCCNC(=N)N)NC(=O)[C@H](C)NC(=O)[C@H](CO)NC(=O)[C@H](CC(=O)O)NC(=O)[C@H](CCC(N)=O)NC(=O)[C@H](CC(C)C)NC(=O)[C@H](CCCNC(=N)N)NC(=O)[C@H](CO)NC(=O)[C@H](CC(C)C)NC(=O)[C@H](C)NC(=O)[C@H](CO)NC(=O)[C@@H](NC(=O)[C@H](Cc1ccccc1)NC(=O)[C@@H](NC(=O)CNC(=O)[C@H](CC(=O)O)NC(=O)[C@H](CO)NC(=O)[C@@H](N)Cc1c[nH]cn1)[C@@H](C)O)[C@@H](C)O)C(=O)N[C@H](C(N)=O)C(C)C | Sctr | cAMP production, agonist | CHO-SecR | 30 min, 37 °C, with: 1 mM IBMX |  | 8.5 ± 1.8 nM
C/C=C(/C)C(=O)O | FFAR2 | agonist |  |  |  | 195000 nM
CCCCN(CCc1ccccc1)CCc1cccc(O)c1 | OPRK1 (Homo sapiens, UniProt P41145) | agonist |  |  |  | 14 nM
CC[C@H](C)[C@H](NC(=O)[C@H](Cc1ccccc1)NC(=O)[C@H](CC(=O)O)NC(=O)[C@H](CCCNC(=N)N)NC(=O)[C@H](C)NC(=O)[C@H](C)NC(=O)[C@H](CC(C)C)NC(=O)[C@H](CC(N)=O)NC(=O)[C@H](CC(=O)O)NC(=O)[C@H](CC(C)C)NC(=O)[C@@H](NC(=O)[C@@H](NC(=O)[C@H](CC(N)=O)NC(=O)[C@H](CCSC)NC(=O)[C@H](CCC(=O)O)NC(=O)[C@H](CC(=O)O)NC(=O)[C@H](CO)NC(=O)[C@H](Cc1ccccc1)NC(=O)[C@H](CO)NC(=O)[C@@H]1CCC[C@H]1NC(=O)[C@H](CC(=O)O)NC(=O)[C@H](C)NC(=O)[C@@H](N)Cc1c[nH]cn1)[C@@H](C)O)[C@@H](C)CC)C(=O)N[C@@H](CC(N)=O)C(=O)N[C@@H](Cc1c[nH]c2ccccc12)C(=O)N[C@@H](CC(C)C)C(=O)N[C@H](C(=O)N[C@@H](CCC(N)=O)C(=O)N[C@H](C(=O)N[C@@H](CCCCN)C(=O)N[C@H](C(=O)N[C@H](C(=O)N[C@@H](CC(=O)O)C(N)=O)[C@@H](C)O)[C@@H](C)CC)[C@@H](C)O)[C@@H](C)CC | GLP2R (Homo sapiens, UniProt O95838) | agonist |  |  |  | 7.5 nM
CC(C)C[C@H](NC(=O)CNC(=O)[C@H](CCC(N)=O)NC(=O)[C@H](CC(C)C)NC(=O)[C@H](CC(C)C)NC(=O)[C@H](CCCNC(=N)N)NC(=O)[C@H](CCC(N)=O)NC(=O)[C@H](CC(C)C)NC(=O)[C@H](CCCNC(=N)N)NC(=O)[C@H](C)NC(=O)[C@H](CO)NC(=O)[C@H](CC(=O)O)NC(=O)[C@H](CCC(N)=O)NC(=O)[C@H](CC(C)C)NC(=O)[C@H](CCCNC(=N)N)NC(=O)[C@H](CO)NC(=O)[C@H](CC(C)C)NC(=O)[C@H](CCC(=O)O)NC(=O)[C@H](CO)NC(=O)[C@@H](NC(=O)[C@H](Cc1ccccc1)NC(=O)[C@@H](NC(=O)[C@H](C)NC(=O)[C@H](CC(=O)O)NC(=O)[C@H](CO)NC(=O)[C@@H](N)Cc1c[nH]cn1)[C@@H](C)O)[C@@H](C)O)C(=O)N[C@H](C(N)=O)C(C)C | Sctr | cAMP production, agonist | CHO-SecR | 30 min, 37 °C, with: 1 mM IBMX |  | 5.1 ± 0.8 nM
CCCC[C@H](NC(=O)[C@H](Cc1ccccc1)NC(=O)[C@H](Cc1c[nH]cn1)NC(=O)CCNC(=O)[C@@H](NC(=O)[C@H](C)NC(=O)[C@H](Cc1c[nH]c2ccccc12)NC(=O)[C@H](CC(N)=O)NC(=O)[C@@H](Cc1ccc(O)cc1)NC(=O)[C@@H](CO)NC(=O)[C@H](CO)NC(=O)[C@H](N)CO)C(C)C)C(N)=O | GRPR | inositol phosphate, agonist |  |  |  | 2.04 nM

Some of these lines once more:
SMILES | target | test | system | setting | scale | EC50
O=C(O)C1CCC1 | FFAR2 | agonist |  |  |  | 468000 nM
CCCC[C@H](NC(=O)[C@H](Cc1ccccc1)NC(=O)[C@H](Cc1c[nH]cn1)NC(=O)CCNC(=O)[C@@H](NC(=O)[C@H](C)NC(=O)[C@H](Cc1c[nH]c2ccccc12)NC(=O)[C@H](CC(N)=O)NC(=O)[C@H](N)Cc1ccc(O)cc1)C(C)C)C(N)=O | GRPR | inositol phosphate generation, agonist | BALB/3T3 transfected with human GRPR | 45 min, 37 °C | baseline: 1 µM GRP | 0.85 ± 0.02 nM
